Measured values pooled from the literature.
Organism: Staphylococcus aureus

`CC1C=CC=CC(C)C2C=CC3CC(C)(O)C(OCc4ccccc4)C(C)C3C2C(=O)C(Cl)(Cl)C(=O)C(C)C(=O)O1` (stereo not drawn) has an MIC of 0.4 µg/mL (microbial growth, broth dilution; NEWMAN).
`NS(=O)(=O)c1ccc(-n2c(SCC(=O)Nc3ccc([N+](=O)[O-])cc3[N+](=O)[O-])nc3ccccc3c2=O)cc1` has an MIC of 15.6 µg/mL (methicillin-resistant; 24 h, 37 °C).
The MIC of `CNC(CC(C)C)C(=O)NC1C(=O)NC(CC(N)=O)C(=O)NC2C(=O)NC3C(=O)NC(C(=O)NC(C(=O)O)c4cc(O)cc(O)c4-c4cc3ccc4O)C(O)c3ccc(c(Cl)c3)Oc3cc2cc(c3OC2OC(CO)C(O)C(O)C2OC2CC(C)(NC(=O)CCCCCC[n+]3ccccc3)C(O)C(C)O2)Oc2ccc(cc2Cl)C1O` (stereo not drawn) is reported as 128 µg/mL (agar dilution; MRSA clinical isolate MRSA4).
For `C=C(NC(=O)C(=C)NC(=O)c1csc(C2=NC3c4csc(n4)C4NC(=O)c5csc(n5)C(C(C)(O)C(C)O)NC(=O)C5CSC(=N5)C(=CC)NC(=O)C(C(C)O)NC(=O)c5csc(n5)C3(CC2)NC(=O)C(C)NC(=O)C(=C)NC(=O)C(=C)NC(=O)C(C(C)CC)NC2C=Cc3c(C(C)O)cc(nc3C2O)C(=O)OC4C)n1)C(N)=O` (stereo not drawn), the MIC was 0.01 µg/mL (broth microdilution; ATCC 10537 MRSA; 18 h, 37 °C).
For `CN(C)c1cc(CN2CCc3ccccc3C2)c(O)c2c1C[C@H]1C[C@H]3[C@H](N(C)C)C(O)=C(C(N)=O)C(=O)[C@@]3(O)C(O)=C1C2=O`, the MIC was over 64 µg/mL (MRSA 5, Tet M, 50% human serum).
The MIC of `CCCCCCCCCCCCCCN1C(=O)/C(=N\NC(=N)N)c2cc(C)ccc21` is reported as over 192 µg/mL (microbial growth, broth dilution; 18 h).
With `COc1cc2c(=O)c(C(=O)NCCNCCO)cn(Cc3ccccc3)c2cc1OCc1ccc(C(C)(C)C)cc1` the MIC was under 0.25 µg/mL (ATCC 43300 MRSA; ≥80% growth inhibition).
`C[n+]1ccc(/C=C2\Sc3ccccc3N2CCCN2CCCC2)c2ccccc21` gave an MIC of 16 µg/mL (microbial growth, broth dilution; ATCCBAA1720 MRSA).
The MIC of `O=C1NC(=O)N(/N=C/c2ccc([N+](=O)[O-])o2)C1O` (stereo not drawn) is reported as 50 µg/mL (microbial growth, broth dilution; ATCC29213; 18 h).
With `COc1cc(Cc2cnc(N)nc2N)cc(/C=C/C(=O)N2N=Cc3ccccc3C2c2ccccc2)c1OC` (stereo not drawn) the MIC was 0.125 µg/mL (microbial growth, broth dilution; ATCC29213).
With `CN(C)c1cc(CNCc2ccco2)c(O)c2c1C[C@H]1C[C@H]3[C@H](N(C)C)C(O)=C(C(N)=O)C(=O)[C@@]3(O)C(O)=C1C2=O` the MIC was 1 µg/mL (RN4250, Tet K efflux).
For `CC(C)C(O)C(NC(=O)[C@H](Cc1ccc(O)cc1)NC(=O)C(Cc1ccc(O)c(Cl)c1)[N+](C)(C)C)C(=O)N[C@@H](C)C(=O)O` (stereo partly drawn), the MIC was over 100 µM (ATCC 29213).
`CC(=O)[O][Ag]=[c]1n(C)ccn1CC([O-])c1ccccc1.[Na+]` (stereo not drawn) has an MIC of 5 µg/mL (broth dilution; ATCC 23235; 18 h, 37 °C).
For `CN(Cc1cc(N(C)C)c2c(c1O)C(=O)C1=C(O)[C@]3(O)C(=O)C(C(N)=O)=C(O)[C@@H](N(C)C)[C@@H]3C[C@@H]1C2)CC(C)(C)C`, the MIC was 0.5 µg/mL (microbial growth, broth dilution).
With `COCO[C@H]1[C@H](O)[C@@H](N)[C@@H](O[C@H]2[C@H](O[C@@H]3O[C@H](CO)[C@@H](O[C@H]4O[C@@H](CN)[C@@H](O)[C@H](O)[C@H]4N)[C@H]3O)[C@@H](O)[C@H](N)C[C@@H]2N)O[C@@H]1CO` the MIC was 64 µg/mL (broth microdilution; MRSA isolate AG 039).

For quick reference, copied from above:
With `COc1cc(Cc2cnc(N)nc2N)cc(/C=C/C(=O)N2N=Cc3ccccc3C2c2ccccc2)c1OC` (stereo not drawn) the MIC was 0.125 µg/mL (microbial growth, broth dilution; ATCC29213).
With `CN(C)c1cc(CNCc2ccco2)c(O)c2c1C[C@H]1C[C@H]3[C@H](N(C)C)C(O)=C(C(N)=O)C(=O)[C@@]3(O)C(O)=C1C2=O` the MIC was 1 µg/mL (RN4250, Tet K efflux).
